Results gathered from unrelated publications.
Compare with care: the assays were run in different laboratories. “And” joins repeats or separate records; there may be more than shown. ± gives the spread as reported. Values after ≈ are worked out from the molar mass of the structure shown.

CN[C@@H]1[C@H](O)[C@H](NC)[C@H]2O[C@]3(O)[C@H](O[C@@H]2[C@H]1O)O[C@H](C)C[C@@]3(O)CNCc1ccc(Cl)cc1  inhibition zone diameter (Legionella pneumophila; ATCC 33153; 40 µg per disc, 48 h): 21 to 22 mm
N#Cc1ncn(COCCOCc2ccccc2)c1C#N  IC50 (Severe acute respiratory syndrome coronavirus; viral replication; Vero; 48 h): 30 µg/mL
[O-][N+]1=C(c2ccc(Cl)cc2)C2=NCCCN2c2ccccc21  MIC90 (Clostridium perfringens): 64 µg/mL (≈ 205 µM)
O=C(C=Cc1ccc(O)c(O)c1)OC1CC(O)(C(=O)O)CC(OC(=O)C=Cc2ccc(O)c(O)c2)C1O (stereo not shown)  inhibition (Severe acute respiratory syndrome coronavirus 2; cytopathic effect, inhibitor; Vero C1008; 12.5 µM): 0%
Cc1cc(C)cc([C@@H]2C[C@H]2C(=O)N[C@H](C(=O)NCc2ccccc2)c2ccc(C)c(C)c2)c1  effective concentration (Chikungunya virus; viral protein expression, Western blot, measured: nsP1, nsP2, capsid; BHK-21; 6 h): > 50 µM
N#Cc1ncn(COCCBr)c1C#N  IC50 (Severe acute respiratory syndrome coronavirus; viral replication; Vero; 48 h): 17 µg/mL
Oc1cccc(O)c1-c1c2nc(c(-c3c(O)cccc3O)c3ccc([nH]3)c(-c3c(O)cccc3O)c3nc(c(-c4c(O)cccc4O)c4ccc1[nH]4)C=C3)C=C2  EC50 (vaccinia virus; extracellular enveloped virus; BSC-40, IHD-J): 0.32 ± 0.11 µg/mL (≈ 0.431 µM)
O=[N+]([O-])c1ccc(Oc2ccccc2)c(O)c1  MIC90 (Francisella tularensis; bacterial growth; LVS): 0.21 ± 0.05 µg/mL (≈ 0.908 µM)
CC[C@H](C)[C@H](NC(=O)[C@H](CCCCN)NC(=O)[C@H](CCCCN)NC(=O)[C@H](CC(C)C)NC(=O)[C@H](Cc1c[nH]c2ccccc12)NC(=O)CN)C(=O)NCC(=O)N[C@@H](CCCCN)C(=O)N[C@@H](CCCCN)C(=O)N[C@H](C(=O)N[C@@H](CCC(=O)O)C(=O)N[C@@H](CCCNC(=N)N)C(=O)N[C@H](C(=O)NCC(=O)N[C@@H](CCC(N)=O)C(=O)N[C@@H](Cc1c[nH]cn1)C(=O)N[C@H](C(=O)N[C@@H](CCCNC(=N)N)C(=O)N[C@@H](CC(=O)O)C(=O)N[C@@H](C)C(=O)N[C@H](C(=O)N[C@H](C(=O)N[C@@H](CCC(N)=O)C(=O)N[C@H](C(=O)N[C@H](C(=O)NCC(=O)N[C@H](C(=O)N[C@@H](C)C(=O)N[C@@H](CCC(N)=O)C(=O)N[C@@H](CCC(N)=O)C(=O)N[C@@H](C)C(=O)N[C@@H](C)C(=O)N[C@@H](CC(N)=O)C(=O)N[C@H](C(=O)N[C@@H](C)C(=O)N[C@@H](C)C(=O)N[C@H](C(=O)N[C@@H](CC(C)C)C(=O)N[C@@H](CCCCN)C(N)=O)[C@@H](C)O)C(C)C)C(C)C)[C@@H](C)CC)[C@@H](C)O)[C@@H](C)CC)[C@@H](C)O)[C@@H](C)O)C(C)C)[C@@H](C)CC  MIC (Enterobacteriaceae, Acinetobacter baumannii; reference strains, CAMHB): 4 µg/mL
Cc1ccc(NS(=O)(=O)c2c(C(=O)N3CCCCCC3)c(C)n(C)c2C)c(Cl)c1  infection (Vaccinia virus; viral infection; HaCaT; 0.046 µM, 36 h; reference: untreated): 111% and 117% and 83.4%
NNC(=O)c1ncn(C2OC(CO)C(O)C2O)c1C(=O)NN (stereo not shown)  IC50 (Mammarenavirus lassaense; viral replication, inhibitor; Vero; 48 h): 35 µg/mL
CC(C)CC(C(=O)N1CC2(CC1C#N)C(=O)Nc1ccccc12)N(C)C(=O)c1cc2c(F)cc(F)c(F)c2[nH]1 (stereo not shown)  inhibition (SARS-CoV-2; viral replication, infectious virus; Vero E6; 0.01111 µM): 74.1%
O=[N+]([O-])c1ccc(-n2nc(-c3ccc(F)cc3)cc2-c2ccc(F)cc2)c([N+](=O)[O-])c1  NS1 protein reduction (Japanese encephalitis virus; western blot; Neuro2a; 15 µM, 72 h): > 95%
CN1CCN(C(=O)N[C@@H](Cc2ccccc2)C(=O)N[C@H](/C=C/S(=O)(=O)c2ccccc2)CCc2ccccc2)CC1  IC50 (Bundibugyo ebolavirus; pseudovirus entry; HEK-293T): 5.91 ± 0.5 nM
COC(=O)c1ncn(C2CC(O)C(CO)O2)c1C(=O)OC (stereo not shown)  IC90 (Mammarenavirus lassaense; viral replication; Vero; 48 h): 48 µg/mL (≈ 160 µM)
O=C(O)CCCC1C2CCCN3CCCC(CN1S(=O)(=O)c1ccc(Cl)cc1)C23 (stereo not shown)  selectivity index (Ebola virus; EBOV GP pseudotyped HIV; reference: CC50 over IC50): 6.62
C[N+]1=C2C(c3ccc([N+](=O)[O-])cc3)=[N+]([O-])c3ccccc3N2CCC1  MIC (Clostridium butyricum): ≤ 0.06 µg/mL
O=C(c1ccccc1O)c1[nH]c(Cl)c(Cl)c1-n1c(C(=O)c2ccccc2O)cc(Cl)c1Cl  MIC (Brucella anthropi; ATCC 49687): 32 µM
COc1ccc(C2=[N+]([O-])c3ccccc3N3CC(C)(C)CN=C23)cc1  MIC (Clostridium butyricum): 0.25 µg/mL
CN[C@@H]1[C@H](O)[C@H](NC)[C@H]2O[C@]3(O)[C@H](O[C@@H]2[C@H]1O)O[C@H](C)C[C@H]3NC(=O)Cc1ccc(Cl)cn1  MIC (Bacillus anthracis; microbial growth; STERNE34F2): 25 µg/mL
CCN(CC)Cc1cc(Nc2ccnc3cc(I)ccc23)ccc1O  potency improvement (Ebola virus; viral infection; GFP reporter; reference: amodiaquine): 3.3 fold
Cc1ccc(N2CC3CC(C2)N3)cc1C(=O)NC1(c2ccc3c4c(cccc24)C(=O)N3C)CC1  inhibition (SARS-CoV-2; viral replication; Vero C1008, Omicron BA.5; 0.005716 µM): 0%
